# Experimental data pooled from the literature.
# Several values in a cell are separate wells, animals, samples, runs or records.
# Target: Calcium/calmodulin-dependent protein kinase type II subunit alpha (CAMK2A, Homo sapiens, UniProt Q9UQM7)
SMILES,assay,setting,scale,quantity,value
Cc1cccc(O[C@H]2CCC[C@@H](C(C)CNCc3ccncc3)C2)c1 (relative stereo),"enzyme activity, inhibitor",10 µM,,inhibition,3%
COc1c(Cl)cccc1Nc1c(-c2ccncc2C#C[C@@]2(C)CCCN2C(=O)/C=C/CN(C)C)[nH]c2c1C(=O)NCC2,"cell-free assay, competition with immobilised ligand",3 µM,,remaining binding,97%
C=CC(=O)N1CCCC(n2c(=O)c3ncccc3n(Cc3ccc(Oc4ccccc4)cc3)c2=O)C1 (stereo not shown),"cell-free assay, competition with immobilised ligand",1 µM,,remaining binding,97%
CC(C)=CC1OC(C)(C)C2C=C3C(=O)C(Cl)=CC(O)C3C3C(O)C4OC4C(=O)C132 (stereo not shown),"cell-free assay, competition with immobilised ligand",10 µM,,remaining binding,65%
CNC(=O)C1CCN(c2cc(C)c(F)cc2NC(=O)c2ccc(-c3cc(O)ccc3C)c(C)c2)CC1,"binding, competition with immobilised ligand",1 µM,,remaining binding,97%
NC(=O)C[C@H]1CCc2sc3ncnc(O[C@H]4CC[C@H](N5CCOCC5)CC4)c3c21,"enzyme activity, inhibitor",10 µM,,inhibition,21%
COCC12C(=O)NC3C4(C(OC)CC1O)C1CC5(O)C(OC)C(O)C(OC(C)=O)(C1C5OC(=O)c1ccccc1)C3(O)C(OC)C24 (stereo not shown),"kinase activity, inhibitor, ProQinase kinase profiling",25 µM,relative to: control,remaining activity,85% and 84%
O=C(Cc1ccc(OCc2ccccc2)cc1)NC1(C(=O)O)CCN(C(=O)c2ccc(-c3cccc(Cl)c3)cc2)CC1,"enzyme activity, inhibitor",10 µM,,activity vs control,86%
C=CC(=O)Nc1cccc(-c2cnc3[nH]cc(C(=O)NC(C)(C)C)c3n2)c1,kinase activity,0.1 µM,,inhibition,0%
CN1CCN(Cc2ccc(-c3ccc(CO[C@H]4CCC[C@@H]4NC(=O)c4cc(-c5cnn(C)c5)cnc4N)cc3)cc2)CC1,"enzyme activity, inhibitor",0.1 µM,,inhibition,-1%
Nc1ncc2c(n1)-c1c([nH]c3ccc(C4=CCOCC4)cc13)CCC2,"binding, competition with immobilised ligand",1 µM,,remaining binding,84%
C=CC(=O)N1Cc2nc(-c3cc(-c4cc(Cl)cnc4Cl)c(F)cc3F)n(-c3ccncn3)c2C1,"cell-free assay, inhibitor",1 µM,,inhibition,4.4%
CNC1C[S+]2CC[S+]3CC[S+](C1)[Ru-4]321([N]=C=S)[n]2c3ccc(OC)cc3c3c4c(c5cc(F)c[n+]1c5c32)C(=O)NC4=O (stereo not shown),KinomeScan,0.1 µM,relative to: untreated,remaining binding,44%

# Excerpt of the above:
SMILES,assay,setting,scale,quantity,value
O=C(Cc1ccc(OCc2ccccc2)cc1)NC1(C(=O)O)CCN(C(=O)c2ccc(-c3cccc(Cl)c3)cc2)CC1,"enzyme activity, inhibitor",10 µM,,activity vs control,86%
CNC(=O)C1CCN(c2cc(C)c(F)cc2NC(=O)c2ccc(-c3cc(O)ccc3C)c(C)c2)CC1,"binding, competition with immobilised ligand",1 µM,,remaining binding,97%
